Measurements collected from several papers.
Each numbered part is a random draw from the data of one study; scales do not carry over between parts. Positions count from the first letter of the parent shown.

Study 1
Target: CEBPE, bZIP domain (human)
Method: DHFR protein complementation
Matrix: yeast
Notes: single substitutions, most at no-binding floor
Baseline: wild-type JUN-FOS pair
Reading: higher = stronger binding
Starting sequence: JUN, bZIP domain (human); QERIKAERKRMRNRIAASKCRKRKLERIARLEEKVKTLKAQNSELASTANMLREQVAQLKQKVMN; partner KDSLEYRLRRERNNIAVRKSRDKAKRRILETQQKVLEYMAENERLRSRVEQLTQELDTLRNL
Change	binding fitness
S47A	-0.924 natural log
S43Y	-1.26 natural log
I28R	-1.24 natural log
L38H	-1.45 natural log
V35M	-0.985 natural log
T37D	-1.02 natural log
Q41V	-1.29 natural log
M51R	-0.979 natural log
K36W	-1.29 natural log
V56G	-1.47 natural log
S43D	-0.857 natural log
L31G	-1.48 natural log
A46S	-1.2 natural log
L45S	-1.55 natural log
E32N	-1.27 natural log
K34F	-1.19 natural log

Study 2
Target: UBE2R2 UBC core domain (UniProt Q712K3)
Method: yeast two-hybrid
Matrix: yeast
Notes: mostly zero background
Baseline: not given
Reading: higher = stronger interaction
B1: RNF135 RING domain (UniProt Q8IUD6); chain PVWLAEDDLGCIICQGLLDWPATLPCGHSFCRHCLEALWGARDARRWACPTCRQGAAQQPHLR
B2: RNF181 RING domain (UniProt Q9P0P0); chain VIRGSQAELKCPVCLLEFEEEETAIEMPCHHLFHSSCILPWLSKTNSCPLCRYELPTDDDTY
B3: DTX1 RING domain (UniProt Q86Y01); chain QKVKNPPDEDCTICMERLVTASGYEGVLRHKGVRPELVGRLGRCGHMYHLLCLVAMYSNGNKDGSLQCPTCKAIYGEKTGTQ
B4: Ltn1 RING domain (UniProt Q6A009); chain VDKRFEGVEDCMICFSVIHGFNYSLPKKACRTCKKKFHSACLYKWFTSSNKSTCPLCRETFF
B5: TRIM48 RING domain (UniProt Q8IWZ4); chain ISQVFQRELTCPICMNYFIDPVTIDCGHSFCRPCFYLNWQDIPILTQCFECIKTIQQRNLKT
B6: TRIM22 RING domain (UniProt Q8IYM9); chain KEVKMSPQEGQKRDVCEHHGKKLQIFCKEDGKVICWVCELSQEHQGHQTFRINEVVKECQEK
B7: PRKN RING domain (UniProt O60260); chain LIATNSRNITCITCTDVRSPVLVFQCNSRHVICLDCFHLYCVTRLNDRQFVHDPQLGYSLPCVAGCPNSLIKELHH
B8: ZNRF3 RING domain (UniProt Q9ULT6); chain DTLSSSSTSDCAICLEKYIDGEELRVIPCTHRFHRKCVDPWLLQHHTCPHCRHNIIEQKGNP
Construct (chain): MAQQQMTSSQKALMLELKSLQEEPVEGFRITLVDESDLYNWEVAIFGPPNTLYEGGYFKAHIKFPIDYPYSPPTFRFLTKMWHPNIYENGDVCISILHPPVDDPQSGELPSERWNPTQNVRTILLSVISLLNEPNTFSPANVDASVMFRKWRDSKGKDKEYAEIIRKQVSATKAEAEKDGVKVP
Molecule	lacZ reporter activity
KITELNPHLMCVLCGGYFIDATTIIECLHSFCKTCIVRYLETSKYCPICDVQVHKTRPLL (BMI1 RING domain (UniProt P35226))	0
B1 (RNF135 RING domain)	0
B2 (RNF181 RING domain)	0
B3 (DTX1 RING domain)	0
KLWDINAHITCRLCSGYLIDATTVTECLHTFCRSCLVKYLEENNTCPTCRIVIHQSHPLQ (PCGF3 RING domain (UniProt Q3KNV8))	0
KEQLEKHNDICAICYQDMKSAVITPCSHFFHAGCLKKWLYVQETCPLCHCHLKNSSQLP (RNF145 RING domain (UniProt Q96MT1))	0
NTAPSLTVPECAICLQTCVHPVSLPCKHVFCYLCVKGASWLGKRCALCRQEIPEDFLDK (RNF146 RING domain (UniProt Q9NTX7))	0
ALDRLEKLLRCSRCTNILREPVCLGGCEHIFCSNCVSDCIGTGCPVCYTPAWIQDLKI (BARD1 RING domain (UniProt Q99728))	0
B4 (Ltn1 RING domain)	0
B5 (TRIM48 RING domain)	0
B6 (TRIM22 RING domain)	0
QLRRLQEERTCKVCLDRAVSIVFVPCGHLVCAECAPGLQLCPICRAPVRSRVRTF (BIRC7 RING domain (UniProt Q96CA5))	0
B7 (PRKN RING domain)	0
B8 (ZNRF3 RING domain)	0

Study 3
Target: CCNA2, cyclin fold, Cln2 fusion (human)
Method: yeast growth competition, sequencing
Matrix: yeast
Notes: weak parent motif
Baseline: not given
Reading: higher = stronger binding
Starting sequence: CDC42EP1 docking peptide (human); SLVVGKLSFDSSP
Change	normalised enrichment score
F9A	-0.529
S12A	0.197
V4A	0.121
L7A	-0.29
K6A	-0.325
S11A	-0.0741
S1A	0.241

Study 4
Target: ABI1, truncated, D143A, DHFR fusion (Arabidopsis thaliana)
Method: DHFR PCA, deep sequencing
Matrix: yeast
Notes: methotrexate growth selection, single substitutions
With: (+)-ABA 0.0091 µM
Baseline: wild-type fitted maximum
Reading: higher = stronger binding
Starting sequence: PYL1, truncated, DHFR fusion (Arabidopsis thaliana); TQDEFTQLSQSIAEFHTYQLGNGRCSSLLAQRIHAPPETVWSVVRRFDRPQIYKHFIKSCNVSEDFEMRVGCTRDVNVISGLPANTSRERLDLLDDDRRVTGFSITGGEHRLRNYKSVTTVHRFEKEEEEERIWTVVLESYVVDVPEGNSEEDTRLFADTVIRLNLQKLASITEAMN; partner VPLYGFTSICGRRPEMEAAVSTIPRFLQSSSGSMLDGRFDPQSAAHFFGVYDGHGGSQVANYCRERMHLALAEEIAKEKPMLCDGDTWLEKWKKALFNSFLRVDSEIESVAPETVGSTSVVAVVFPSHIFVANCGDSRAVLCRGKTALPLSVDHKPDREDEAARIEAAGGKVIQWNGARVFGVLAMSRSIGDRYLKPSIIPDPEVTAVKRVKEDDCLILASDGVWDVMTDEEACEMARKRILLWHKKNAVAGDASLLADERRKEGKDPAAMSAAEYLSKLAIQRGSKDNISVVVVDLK
Change	relative binding score
T86S	17.6%
V137D	-8.19%
K116R	45.7%
P37W	0.298%
A175P	1.18%
V161L	61.2%
Q10G	31.6%
G23V	-1.63%
W134R	8.03%
R74C	2.15%
D75K	8.86%
G107N	10.8%
H110Q	44.2%
Y53Q	-4.52%
T154M	7.98%
G108I	-7.82%
Q10P	31.5%
P37E	-1.94%
E130C	28.4%
P36A	16.7%

Study 5
Target: Interferon regulatory factor 5, full length, phosphomimetic (IRF5, Homo sapiens, UniProt Q13568-2, residues 1-514, S451D/S453D/S456D/S462D)
Method: protein-binding microarray
Molecule type: double-stranded DNA, one strand shown
Matrix: in vitro
Concentration: 940 nM top
Notes: 60-bp whole probe
With: salmon DNA 0.4 mg/ml
Baseline: random background probes
Reading: higher = stronger binding
Constant ends, left off below: GCCTAGCAC … GTCTTGATTCGCTTGACGCTGCTG
Strand	fitted relative affinity [z-score]
GACAGTATCGGACTGGGGACGTGCTAG	2.77
TCATTTTTATCAAATGTGACTGTGCTA	0.0932
TTAGATTTCAGTATCGAGTAGTGCTAG	2.8
TCACCTTTCCTTTGCCTACTGTGCTAG	2.11
GACGATCTCAGACGGGAGACGTGCTAG	-0.349
GACGGTTCCCTTTTCCTGGCGTGCTAG	1.07
TTAGTACTGGACTATCGGTTAGTGCTA	-0.146
TACGGTATCGGTTTCGGGACGTGCTAG	8.91
TGAACTAGCGGGTCTTGCAGTGTGCTA	-0.488
TCATGTTTACATATGTTACTGTGCTAG	-0.0784
GACGGTCTCGGTACCGGGACGTGCTAG	3.91
ATGAGCCTCTGTTTTGAGCAGTGCTAG	-0.498
TTAGGACTGGGTTTGGGTTAGTGCTAG	-0.399
GACGATTTCGGGTATCGGGACGTGCTA	1.44
GAAGGACTGCTTCTCCTGACGTGCTAG	-0.341
GACGGACTGGGGAATGGGGACGTGCTA	-0.116
TTAGAAATGGGGTTTCGATTAGTGCTA	5.63
TTAGATCTCAGTATTGATTAGTGCTAG	0.411
GCCGAACTGGGGTTTCGAGACGTGCTA	2.49
TTAGGTTTCGGTTCCTGTTAGTGCTAG	14.7
TTAGGTCTCCTTTACCTTTAGTGCTAG	0.733
TCAATGATCCAGTTTTACACTGTGCTA	-0.0109
